Assay results collected from several papers.
Each numbered part is a random draw from the data of one study; scales do not carry over between parts. Positions count from the first letter of the parent shown.

Set 1 — target: CCND1, cyclin fold, Cln2 fusion (human); method: yeast growth competition, sequencing; sample: yeast; notes: weak parent motif; reference: not given; reading: higher = stronger binding; quantity: normalised enrichment score
Starting sequence: WEE2 docking peptide (human); KELRQKLNFSYCE; partner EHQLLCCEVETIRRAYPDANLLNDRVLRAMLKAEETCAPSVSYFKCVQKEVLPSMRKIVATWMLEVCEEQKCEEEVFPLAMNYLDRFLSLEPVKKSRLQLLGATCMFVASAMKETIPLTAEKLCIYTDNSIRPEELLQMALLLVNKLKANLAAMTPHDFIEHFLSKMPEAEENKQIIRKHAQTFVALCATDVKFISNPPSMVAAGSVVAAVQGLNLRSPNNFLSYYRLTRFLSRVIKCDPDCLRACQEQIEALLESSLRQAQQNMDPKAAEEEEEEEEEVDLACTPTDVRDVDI
Variant = KELAQKLNFSYCE [R4A]; result = 0.179
Variant = KELRQKLAFSYCE [N8A]; result = -0.065
Variant = KELRQKLNFSACE [Y11A]; result = 0.138
Variant = KELRQKLNFSYAE [C12A]; result = -0.236
Variant = KALRQKLNFSYCE [E2A]; result = 0.207
Variant = KELRQKLNFAYCE [S10A]; result = 0.162

Set 2 — method: RNA Bind-n-Seq; form: RNA; sample: in vitro; concentration: 365 nM; reference: no-protein control; reading: higher = stronger binding; quantity: RBNS enrichment (R)
Target: RNA binding protein fox-1 homolog 2, RRM domain, GST-SBP tag (RBFOX2, Homo sapiens, UniProt O43251-10, residues 100-194)
Notes: natural RNA segment, single round, ends assumed
Constant ends, left off below: GGGAGUUCUACAGUCCGACGAUC … UGGAAUUCUCGGGUGCCAA
Construct (chain): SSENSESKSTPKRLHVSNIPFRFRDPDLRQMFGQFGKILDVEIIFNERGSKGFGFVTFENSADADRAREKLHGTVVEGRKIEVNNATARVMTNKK
Oligonucleotide = CAGGCGUGUCACUUGAGGCCAGGAGUUCGAGACCAGCCUGGCCAACAUGAUGAAACCCCGUCUCUACUACAAAUACAAAAAUUAGCCGGGUGUGGUGGCACACGCCUGUA; result = 0.73
Oligonucleotide = AGAGUACACCGUUCACUAUUGUAGAGUAACCCCUGUGACUCAAUAUUACCAUAGUGCGAUGUCGUUUUGUGCUAUUUUGAACAAUUAAAAGACUUUUUUUGAAAUAACCA; result = 0.376
Oligonucleotide = AGACACAGUGGAAGGGGGAAAAAAAGCUACGAGAUUGUUUUUACACUUUUAGCAAAGUUUCUGUGGAUGCUAGUAAUUUAUACUUGAUCAGUUGUAUUCUAGUAAAGAAC; result = 0.569
Oligonucleotide = CAUUGCAAUGGGAGGUGGAGGGACAGGCUCAGCCUCCUCAUUGUCUAAAUGAGGCCUAAAUGUGUGAAGUGCGAUUUCUGCUUUUGUGUACCCCACCACCCCAUUACCAC; result = 0.518
Oligonucleotide = CAAUUGUAUUGAAUCACAUAAUGAUUCAUAAGUAACUAGGGAACCAACUGAUUUUGCUAAGCAGUCUUCCCCUUAUAACACCACAGGCCCUUCUGACACACAAAAAAAUG; result = 0.333
Oligonucleotide = CUAGUUAAUGGUAGAAUACUCCCAAAACUUGGAGAAAGAACUGCUCUCUGAAGCUAUCAGAAAUACCUAUGCCAGUAUAGAAGGGGAACUUGGUGAAGGAUGGUGCUCAU; result = 1.2
Oligonucleotide = GCCCGCAUGAGAGAGGUGUGUGAUGAAGUCAAAGCACACCUGCUGGCAGACAUGGCCCACAUCAGUGGCCUGGUGGCUGCCAAGGUGAUUCCCUCGCCUUUCAAGCACGC; result = 2
Oligonucleotide = CCUAGCGACAUUAGCUGAGAACACCACGGAGCUGCUUCCCUCCCUCUGCAGUCAGUCUGUUUUCAGAGGCACCCCAGCGAGCCCAGUGCAAGCCCGUAACCCUCCAGAGC; result = 0.588
Oligonucleotide = CCCUUUCCUCAGGAGGUACCGCUCUCCAAGGUGUGCUAGCAGUGGGCCCUGCCCAACUUCAGGCAGAACAGGGAGGCCCAGAGAUUACAGAUCCCCUCCUGUAAGUGGCC; result = 0.294
Oligonucleotide = AAGCUCUUUGACUUUGACAAGAGGUUCUAGUUAAAGCACACACUUAAUCUACAGCCACUCUCUACCUUGAGUCUAUCUAUGGUCAGUUGAAGAGUUUUAGAAGAAAUUCU; result = 0.291
Oligonucleotide = GAAAAGAUACAUUAAAAAAAAAUAAUAAUGAAGGGAGCUCAGAAUUCACACAGGCAAGGGUUGACUGGCCAAGCUGGCACCAUGUGCUUGUGCAGCUCUGGAUCUCUGAG; result = 0.555
Oligonucleotide = AGGACAAAGCCAGGAGUGGAGCUGAGGAAGACUAAGGUAGAAACUCUGUGCCCAAGCUGACACAGAACCCCAAAUGUGUGGGAGGAAUGGACCCCAGAGCUUUGGGCCCA; result = 0.671

Set 3 — method: DHFR PCA, deep sequencing; sample: yeast; added: (+)-ABA 58 µM; reference: wild-type fitted maximum; reading: higher = stronger binding; quantity: relative binding score
Target: ABI1, truncated, D143A, DHFR fusion (Arabidopsis thaliana)
Notes: methotrexate growth selection, single substitutions
Starting sequence: PYL1, truncated, DHFR fusion (Arabidopsis thaliana); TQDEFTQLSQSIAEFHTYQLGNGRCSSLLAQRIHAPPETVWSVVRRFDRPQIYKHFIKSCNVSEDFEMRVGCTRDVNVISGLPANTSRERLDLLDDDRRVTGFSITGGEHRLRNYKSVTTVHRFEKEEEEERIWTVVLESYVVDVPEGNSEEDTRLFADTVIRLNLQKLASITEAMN; partner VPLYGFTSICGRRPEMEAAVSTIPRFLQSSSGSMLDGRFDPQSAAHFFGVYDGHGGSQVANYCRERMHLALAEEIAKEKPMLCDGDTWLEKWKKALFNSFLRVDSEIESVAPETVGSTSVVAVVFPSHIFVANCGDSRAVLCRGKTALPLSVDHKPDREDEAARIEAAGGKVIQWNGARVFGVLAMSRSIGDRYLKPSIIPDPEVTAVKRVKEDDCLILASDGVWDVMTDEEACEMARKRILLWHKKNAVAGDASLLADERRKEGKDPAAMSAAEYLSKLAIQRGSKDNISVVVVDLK
Variant = V143P; result = -1.57%
Variant = T106G; result = 24.2%
Variant = K116I; result = 11.6%
Variant = Q2Y; result = 86.6%
Variant = V76Y; result = 54.3%
Variant = C72Y; result = 69%
Variant = P50S; result = -4.16%
Variant = L8A; result = 58%
Variant = S9R; result = 95.3%
Variant = T6H; result = 83.2%
Variant = S140D; result = -11.7%
Variant = E109S; result = 89.2%
Variant = E14D; result = 70.6%
Variant = G148F; result = 48.9%
Variant = Y18H; result = 91.4%
Variant = V161Y; result = 41.1%

Set 4 — method: protein-binding microarray; form: double-stranded DNA, one strand shown; sample: in vitro; concentration: 0.8 µM; notes: whole 60-bp probe, no competitor; reading: higher = stronger binding; quantity: fluorescence intensity; constant ends, left off below: … GTCTTGATTCGCTTGACGCTGCTG
Target: Centromere-binding protein 1, full length, N-terminal tag (CBF1, Saccharomyces cerevisiae, UniProt P17106, residues 1-351)
UniProt P17106, sequence (whole entry, looked up): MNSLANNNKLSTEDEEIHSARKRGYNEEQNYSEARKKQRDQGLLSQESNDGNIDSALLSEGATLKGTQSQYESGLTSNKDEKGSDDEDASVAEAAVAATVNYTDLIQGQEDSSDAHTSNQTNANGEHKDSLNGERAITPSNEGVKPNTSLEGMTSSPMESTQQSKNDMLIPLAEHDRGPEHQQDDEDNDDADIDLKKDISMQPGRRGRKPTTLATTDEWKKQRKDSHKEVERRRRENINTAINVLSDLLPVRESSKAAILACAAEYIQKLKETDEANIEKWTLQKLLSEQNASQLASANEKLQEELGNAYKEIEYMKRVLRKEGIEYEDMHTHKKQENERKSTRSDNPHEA
Oligonucleotide = CTAGCGATATCAAGTGATGTTACCTTCCTTTACTTC; result = 565 a.u.
Oligonucleotide = GAACATATTCTGATCCAACTGATGCATCAGTTATAG; result = 525 a.u.
Oligonucleotide = CTAGTGAGCGTGCGGCTGATGGTCCATCACGGTTTC; result = 511 a.u.
Oligonucleotide = CTACGTCTATGATGACGTGTTCACATTATCAAATTC; result = 595 a.u.
Oligonucleotide = CTAAAATAAAGGGAACACACGTGAAAGTGAAGGTTC; result = 1770 a.u.
Oligonucleotide = CTAAGTATACTATCACATGTGGTGTAAAAAGATTTC; result = 2090 a.u.
Oligonucleotide = GAATTGTGGGTTTATTACGTGAAAAAATGATGTTAG; result = 555 a.u.
Oligonucleotide = GAAGTAAAATAGGTAGACACCACGTATTGGCGATAG; result = 540 a.u.
Oligonucleotide = GAAGTTCACTGGGGTAATCACATGTGATATCTATAG; result = 4810 a.u.
Oligonucleotide = TGTACGAAGCTATTTCACGTCATTATAGTAGTTAGG; result = 568 a.u.
Oligonucleotide = CTATTAACAGATCTGGACGTGATTTTTTTTTTTTTC; result = 573 a.u.
Oligonucleotide = GAAAAAACGCACAGGGTGATGATCTGCAAATTCTAG; result = 569 a.u.
Oligonucleotide = GAAATTCCGTTTCATCATATGATCTGGCCGTCTTAG; result = 703 a.u.
Oligonucleotide = GAATACTGTCCCTCCCCCGTGCACAGCATGTTGTAG; result = 633 a.u.
Oligonucleotide = TGTACGAAGCTATATCATGACGCTATAGTAGTTAGG; result = 522 a.u.
Oligonucleotide = CTAGTTCACCGGAAAGCCGTGACAAAAGAGAGTTTC; result = 541 a.u.
Oligonucleotide = CTATGTGTCATTTTGCACGTTACATCGGTTTGCTTC; result = 708 a.u.
Oligonucleotide = CTAAGAACTTTTCCTGATGCTTGTATCAGAACCTTC; result = 503 a.u.
Oligonucleotide = GAATGCACACTGTATGTGATGACGGCTATCATTTAG; result = 520 a.u.
Oligonucleotide = GAATCAGCTTATGGTGATGGCACATTTTTGCATTAG; result = 514 a.u.
Oligonucleotide = CTAAGACATCTAACAGGTGAGTTTGAAAAGTAATTC; result = 529 a.u.
Oligonucleotide = CTACTTGGTTCGTGTCACGTAGTTACCTCACTCTTC; result = 863 a.u.
Oligonucleotide = CTATATAAATATAGTCAGATGAGTGCTTCATTTTTC; result = 584 a.u.
Oligonucleotide = CTAATATATATGTGTCATGCGAGTCTTTACATTTTC; result = 649 a.u.
Oligonucleotide = GAAAGAGTAAAAGGCCGTGCGCACTCTGACAAGTAG; result = 530 a.u.

Set 5 — method: aptamer microarray, sandwich; form: DNA with 2'F-ANA; sample: in vitro; concentration: 200 nM; added: Cy3 exosite-II aptamer, 400 nM; reading: higher = stronger binding; quantity: mean fluorescence intensity; oligonucleotide: GGTTGGTGTGGTTGG
Target: Prothrombin, mature alpha-thrombin (F2, Homo sapiens, UniProt P00734)
Notes: whole 15-mer aptamer, many near background
Modification = 2'F-ANA at 4 5 6 9 10 11 15; result = 48.9 a.u.
Modification = 2'F-ANA at 3 4 7 8 10 11 14; result = 230 a.u.
Modification = 2'F-ANA at 1 4 5 9 11 14 15; result = 53.3 a.u.
Modification = 2'F-ANA at 1 3 6 7 10 12 13 14; result = 59.1 a.u.
Modification = 2'F-ANA at 2 3 4 12; result = 887 a.u.
Modification = 2'F-ANA at 3 5 11 15; result = 105 a.u.
Modification = 2'F-ANA at 1 3 5 7 8 10 11 12 13 14 15; result = 47.5 a.u.
Modification = 2'F-ANA at 1 2 3 4 6 9 10 11 12 13; result = 57.5 a.u.
Modification = 2'F-ANA at 4 5 7 9 10 11 12; result = 49.4 a.u.
Modification = 2'F-ANA at 3 4 6 7 9 12 13 14; result = 264 a.u.
Modification = 2'F-ANA at 2 7 10 15; result = 157 a.u.
Modification = 2'F-ANA at 2 4 5 7 8 9 10 12 13 14 15; result = 47.8 a.u.
Modification = 2'F-ANA at 6 7 8 14 15; result = 209 a.u.
Modification = 2'F-ANA at 2 4 6 9 10 11 13 15; result = 182 a.u.
Modification = 2'F-ANA at 1 4 5 6 9 14 15; result = 44.8 a.u.
Modification = 2'F-ANA at 1 3 4 5 7 9 12 15; result = 115 a.u.
Modification = 2'F-ANA at 2 3 5 8 9 11 13 14; result = 56.2 a.u.
Modification = 2'F-ANA at 1 3 4 5 15; result = 58.7 a.u.
Modification = 2'F-ANA at 3 7 8 11 12 13; result = 1200 a.u.
Modification = 2'F-ANA at 3 5 6 7 11 12 13; result = 141 a.u.
Modification = 2'F-ANA at 1 3 4 9 10 11 12 13 14 15; result = 53.8 a.u.
Modification = 2'F-ANA at 4 6 7 8 9 10 13 14; result = 59.2 a.u.
Modification = 2'F-ANA at 1 2 6 10 14 15; result = 51.3 a.u.

A few entries again (set 3):
Variant = E109S; result = 89.2%
Variant = T106G; result = 24.2%
Variant = Q2Y; result = 86.6%
Variant = K116I; result = 11.6%
Variant = T6H; result = 83.2%
Variant = E14D; result = 70.6%
Variant = S140D; result = -11.7%
Variant = Y18H; result = 91.4%
Variant = S9R; result = 95.3%
Variant = V76Y; result = 54.3%
